# Assay results collected from several papers.
# Numbered parts are unrelated; each lists some results of a single study.

# Study 1
# Target: RNA binding protein fox-1 homolog 2, RRM domain, GST-SBP tag (RBFOX2, Homo sapiens, UniProt O43251-10, residues 100-194)
# Technique: RNA Bind-n-Seq
# Molecule type: RNA
# Sample: in vitro
# Concentration: 365 nM
# Setting: natural RNA segment, single round, ends assumed
# Baseline: no-protein control
# Reading: higher = stronger binding
# All sequences stand within: GGGAGUUCUACAGUCCGACGAUC … UGGAAUUCUCGGGUGCCAA
# Residues (chain): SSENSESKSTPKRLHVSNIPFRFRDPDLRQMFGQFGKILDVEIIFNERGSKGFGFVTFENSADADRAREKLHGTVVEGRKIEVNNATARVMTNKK
Strand,RBNS enrichment (R)
UAAAAUGGAUGUUUAGUAAAGGAACUGGUUCUCAGUUAUGUUUACAGCACUUGGAAUUGUGUGUUCUUGUACAUUUUGUAUUUUAAAACCUUUUAUGGGAGUGCAGUGCU,1.49
CCUGGCUGAGUCACUCUCCACGUCUAUCCUGAAAUCACUCAAUGCUUCUGCCGGGUUUUUGUACAUGUAAACACUGUCAAGCUGUGAAAGAAAGUGGCUGGAGGUGUGUU,1.01
GCGGCUGACCUCCAUGAUCGGACGUUGCCGCCUCUGUGUACAUUAUUUUCCUUACUGAAAUCAAGUGUUUGACUUUUUACAAAAGUGAAACCUUACCCGAGAGGAGUUUC,0.28
GGCUGCCUGCAGGCUCCCGUUUUCUGAGCCCACGCUGCCCACAGCUGACCCCAGCGCAGCCCCGGGCACGCGGCACUUUACAUGGGGGCAGCUUGGGCCCAGACUCCUCC,0.388
AACAAAAUGUUUCUUAAUUUUAUUGUGGAGUUACAACUUGCAUGUUCCUUACUCCUGUUGGCUUGAUGGAACAGGUGCAUUCACACUAUGAAACAGAAAGAUCUGUCCAA,2.36
UGCUGGUCUGGCAAACACACCUUUCUGCUUUGCCUUCACAAAAGUAAUGUGUUCCCUUUCCCACCCCUUGCCUGACCCUCAGGGAGUCAGCCUGCUUCCAUCCAUGGGUG,1.7
GCUAUGCAUGCUGUUGGGACUCGUAUUACAGGGAAUGGCAUUGAGAAGCCAAGUGGGACUCACUGCUGCCAUUCUCCUUGUGCUUGGUCUUCACUAGACCCCAGCCCCCU,3.25
UUUUAGGAAUACGGGGAGUGAAGGAAGGCCGGCAGGCAUCUCCAUGCAACUAGAUGGUUUGUUUGUUUGUUUGUUUGUUUGUUGUUCAUUUUGUUGUGUUUUUUGAGACA,10.8

# Study 2
# Target: Fragile X messenger ribonucleoprotein 1, C-terminal low-complexity region (Fmr1, Mus musculus, UniProt P35922)
# Technique: RNA Bind-n-Seq
# Molecule type: RNA
# Sample: in vitro
# Concentration: 200 nM
# Setting: whole 134-nt RNA, ends assumed
# Added: 150 mM LiCl
# Baseline: input library
# Reading: higher = stronger binding
# All molecules: 7-deaza-guanosine replaces G
# All sequences stand within: GGGAGUUCUACAGUCCGACGAUC … UGGAAUUCUCGGGUGUCAAGG
Strand,log2 enrichment
UUCAAAACAGAAUCCUUCCAGUCCUCUUCAGCGUUUAAUUCCAGGCUCAAACUUGGACAGUGAACCCAGAAUUCAAACAGAUAUACUAAA,1.49
CUGUGCUACACAUCGUAUGUACCGAAUCGGGGCCCCCCCGGGGCCCCCCCGGCCCCCCCGGGAAAGUAUUAUGUUACGCCGUUCGGAUCU,-0.824
UCCUGUGCUACACAUCGUAUGUACCGAAUCGGUUUUUUGGGUUUUUUGGUUUUUUGGGGAAAGUAUUAUGUUACGCCGUUCGGAUCUGCA,-1.04
UAACUUUAGAGGAGGAUCUGAUGGAUAUGGCAGUGGACGUGGAUUUGGGGAUGGCUGUAAUGGGUAUGGAGGAGGACCUGGAGGUGGCAA,1.16
UCCUCAAGUCCUGUGCUACACAUCGUAUGUACCGAAUCGGUGGUUUGGAGGAAAGUAUUAUGUUACGCCGUUCGGAUCUGCACUUCCAGC,-0.36
GCAGGAAGUAAAAACAAAUGGAAAUGCAAAGGAUAGUGGCAGGGGUGGGGGUUGCUAAGGAAAGGGUGGGAUGGGAGUGGGUAAAGAGUU,1.65
CUUUGGUUGACAGGAAGUUCCUUUUCCAGGCAGGUCCCGUUGCCACCUCCUGCUCACUCAGUCCCGGGCUCUGCCGAGUGGUCCUGGGAA,1.68
GAAAUUGAACCAGCAGCGAUGAAAGCAGCAGCUGCUGCCCCUGCCUCAGAGGAUGAGGACGAUGAGGAUGACGAAGAUGAUGAGGAUGAC,-1.41

# Study 3
# Target: Sal-like protein 4, full length isoform B (SALL4, Homo sapiens, UniProt Q9UJQ4-2, residues 1-616)
# Technique: universal PBM
# Molecule type: double-stranded DNA, one strand shown
# Sample: in vitro
# Concentration: not given
# Setting: 8-mer, flanks averaged, mean of replicates
# Reading: higher = stronger binding
# Construct (chain): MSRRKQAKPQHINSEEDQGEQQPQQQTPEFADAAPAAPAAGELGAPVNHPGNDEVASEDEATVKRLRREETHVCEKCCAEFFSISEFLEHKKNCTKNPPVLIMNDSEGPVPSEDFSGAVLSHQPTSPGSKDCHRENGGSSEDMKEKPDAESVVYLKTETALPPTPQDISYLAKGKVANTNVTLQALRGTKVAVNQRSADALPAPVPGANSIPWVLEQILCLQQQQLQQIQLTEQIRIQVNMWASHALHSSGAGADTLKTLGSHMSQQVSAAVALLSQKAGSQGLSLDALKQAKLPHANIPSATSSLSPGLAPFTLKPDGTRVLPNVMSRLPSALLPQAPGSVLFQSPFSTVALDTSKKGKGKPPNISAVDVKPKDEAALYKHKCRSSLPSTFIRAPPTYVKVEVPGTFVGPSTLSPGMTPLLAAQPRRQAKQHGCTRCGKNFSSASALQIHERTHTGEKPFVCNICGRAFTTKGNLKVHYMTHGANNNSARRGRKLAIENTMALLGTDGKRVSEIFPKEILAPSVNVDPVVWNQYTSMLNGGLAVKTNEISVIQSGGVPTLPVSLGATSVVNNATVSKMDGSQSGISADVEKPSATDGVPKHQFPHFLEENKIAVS
Strand,E-score
CGATTACC,-0.175
CATCCGGC,-0.277
CGATTGTC,0.0087
CGAGCGGC,-0.405
AAAGGAGC,-0.157
AGGTTCCA,-0.0952
CCTGCACG,-0.0853
GTTAGTAA,0.186
CGGAGGGA,-0.24
AACTTCGA,0.017
ACGACACT,0.018
GGAAGAAA,0.0381
TCATGGCA,-0.0269
TAGTACGA,0.178
CAACCCGG,-0.415
GTAACCCA,0.016
AGGCTAAA,0.0436
CGTAACAA,0.153
GTGTGTAA,0.125
CTTGCACA,0.0527
ACGGATCG,-0.154
AAGCTTCC,0.0432
ACATTGAA,0.265
AGTTCTCA,0.0813

# Study 4
# Target: RING finger protein unkempt homolog, zinc fingers 1-6, GST-SBP tag (UNK, Homo sapiens, UniProt Q9C0B0, residues 30-357)
# Sequence of UniProt Q9C0B0 (30-357, looked up): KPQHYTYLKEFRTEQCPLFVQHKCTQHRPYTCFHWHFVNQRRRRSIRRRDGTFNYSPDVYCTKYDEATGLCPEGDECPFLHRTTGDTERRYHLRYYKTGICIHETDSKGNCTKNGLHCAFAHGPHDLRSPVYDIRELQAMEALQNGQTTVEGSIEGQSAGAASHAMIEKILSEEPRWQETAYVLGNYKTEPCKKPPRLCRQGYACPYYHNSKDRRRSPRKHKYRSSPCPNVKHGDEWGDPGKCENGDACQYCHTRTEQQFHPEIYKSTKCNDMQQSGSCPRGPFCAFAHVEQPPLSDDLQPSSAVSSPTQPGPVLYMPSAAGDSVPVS
# Technique: RNA Bind-n-Seq
# Molecule type: RNA
# Sample: in vitro
# Concentration: not given
# Setting: RNA with constant flanks, human-mouse chimeric sites, ends assumed
# Baseline: input RNA pool
# Reading: higher = stronger binding
# All sequences stand within: GGGAGUUCUACAGUCCGACGAUC … CAACAGAGGAUUGAGCAUCA
Strand,bound/input enrichment [ratio]
CUGAGGAUACCACUGAAGAGACCUUAAAAGAAUCAUUUGAGGGCUCUCGUUCGGGCAGAAUAGUCACCUGACCGGGAACUGGUUCUUCCAAAGGGUUUGGUUUUGUAGACUUUAAUAGUG,0.608
GGAUUCCGCUUCCGGUUCCGUUGGGCUCGGUUCUCUCCUGAGCUACGUGUCUCUACGCUCUCAAUCCGCCAUCCAACAAACAUGGAUGAUCAGGUAAAGUUUGUGGAGCCCAGCCGGCAG,0.0513
AAAGAAUGGAUAGAGUGUGCACACGGGAUCGGUGGGACCCGGGCGAAAAAGGAGUGCAAGAUAGAGUAUGAUGAUUUCGAAGAGUGCUUGCUUCGGUACAAAACGAUGAGGCGAAUGCAU,1.44
CUGGGCUGCUCGGGUUAUUCUUUCCUUUAGGAAAAGCCUAAAGAUUAGGUUGUAAGAAAAACAGAAGCCAUGUUUCGAAGACCUGUGUUACAGGUAUUUCGUCAGUUUGUAAGACAUGAG,0.637
GCAAGAGAUGAUGAGGCGGCAGCUGUUGCACUUUCCUCUCUCGUUCAUGCUUUGGAUGAGUUAAACAUGGUCGCCAUCGUCCGAUAUGCUUAUGACAAAAGAUCUAAUCCUCAAGUUGGU,0.0925
AUAGAUGAAAUUGAUGUAGAUCAGGAAGGAAUUGCAGAAAUGAUCCUGGAUGAAAAUGCUAUUGCUCAGGUCCCACGCCCUGGCACAUCUUUGAAGCUCCCUGGCACUAACCAAACAGGA,0.339
UUGAAAACUGAUUCAAGUAAGUUUGAGUAUCACAAUGUUAGCUUUCUAAUUCCAUAAAAGUACUUGGUACAGUUUCUUUAUAAUCUGACAUCACCCCCCGUUUAUAAGUAAAGAGCAACU,1.5
AGAAUCUGUGACUGGCUUUACUUAAUUGGUCAUUGAUAGCUUAACAAACAUGGAGAUAAGAUUAGAAAUCUUGACAUCAACAGGUAUUAAGCAGAAAAAACCAUGGCCCAGAGUAUCCUG,0.152
